Experimental data from different studies.
Numbered parts are unrelated; each lists some results of a single study. Substitutions count along the parent as printed.

Series 1 — technique: protein-binding microarray; form: double-stranded DNA, one strand shown; medium: in vitro; tested at: 2200 nM top; notes: 60-bp whole probe; with: salmon DNA 0.4 mg/ml; baseline: random background probes; reading: higher = stronger binding; all sequences stand within: GCCTAGCAC … GTCTTGATTCGCTTGACGCTGCTG
Target: Interferon regulatory factor 7, full length, phosphomimetic (IRF7, Homo sapiens, UniProt Q92985, residues 1-503, S471D/S472D/S475D/S476D/S477D/S483D/S484D/S487D)
Sequence of UniProt Q92985 (whole entry, unmodified, looked up): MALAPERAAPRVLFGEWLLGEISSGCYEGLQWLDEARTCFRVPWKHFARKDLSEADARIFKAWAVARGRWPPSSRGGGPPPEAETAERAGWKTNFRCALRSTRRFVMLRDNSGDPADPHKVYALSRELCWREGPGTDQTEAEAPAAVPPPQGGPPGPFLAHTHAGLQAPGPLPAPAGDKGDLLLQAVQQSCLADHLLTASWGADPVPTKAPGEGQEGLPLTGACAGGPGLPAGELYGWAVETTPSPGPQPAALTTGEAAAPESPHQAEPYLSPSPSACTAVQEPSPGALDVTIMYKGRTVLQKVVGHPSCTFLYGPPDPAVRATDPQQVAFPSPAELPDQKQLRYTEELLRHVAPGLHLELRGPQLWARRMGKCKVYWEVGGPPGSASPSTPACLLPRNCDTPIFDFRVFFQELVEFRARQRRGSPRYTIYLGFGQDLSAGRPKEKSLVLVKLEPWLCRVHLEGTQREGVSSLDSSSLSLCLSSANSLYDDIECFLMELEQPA
Sequence	fitted relative affinity
TTAGGTTTCGGGGATCGGTTAGTGCTA	2.53 z-score
AATGAGGCACTGAGAGCAGAGTGCTAG	-1.04 z-score
TTAGGACTGGGACGGGGTTAGTGCTAG	-0.172 z-score
TTAGACCTGGGGTTTCGATTAGTGCTA	2.09 z-score
AGATACCTTTAACAGTGCCTGTGCTAG	0.182 z-score
GACGATATCGGGATTCGAGACGTGCTA	0.155 z-score
TTAGGACTGATTATCCTTTAGTGCTAG	-0.135 z-score
GACGATTTCAGTATCGAGAGGTGCTAG	0.54 z-score
TTAGAACTGGGGTTTCGAATAGTGCTA	0.71 z-score
TTAGGTTTCCTTCTCCTTTTGTGCTAG	2.5 z-score
TACGATATCAGTTTCGAGACGTGCTAG	3.72 z-score
GACGGTTTCGACAGTGGGGACGTGCTA	1.83 z-score
GAAGATATCAGTATCGAGACGTGCTAG	-0.21 z-score
TTAGGTATCGGACTGGGTTAGTGCTAG	0.0237 z-score
TCATTTTTGCTTACGATGCAGTGCTAG	2.32 z-score
CTAGGTATCGGTTTCGGTTAGTGCTAG	7.28 z-score
TCAAATTTATAAATAAAACTGTGCTAG	-1 z-score
AACGGTATCGGGTATCGGGACGTGCTA	0.252 z-score
TTAGGTTTCAACACTGGGTTAGTGCTA	0.147 z-score
TTAGGACCGGGTATCGGTTAGTGCTAG	-0.505 z-score
TTAGGTTTCCTTCCCCTTTAGTGCTAG	2.6 z-score
TCAGAGTCCTGTTTGATACTGTGCTAG	1.04 z-score
GACGGACTGCACACTGGGGACGTGCTA	-0.566 z-score

Series 2 — technique: RNA Bind-n-Seq; form: RNA; medium: in vitro; tested at: 365 nM; baseline: no-protein control; reading: higher = stronger binding
Target: RNA binding protein fox-1 homolog 2, RRM domain, GST-SBP tag (RBFOX2, Homo sapiens, UniProt O43251-10, residues 100-194)
Notes: natural RNA segment, single round, ends assumed
All sequences stand within: GGGAGUUCUACAGUCCGACGAUC … UGGAAUUCUCGGGUGCCAA
Construct (chain): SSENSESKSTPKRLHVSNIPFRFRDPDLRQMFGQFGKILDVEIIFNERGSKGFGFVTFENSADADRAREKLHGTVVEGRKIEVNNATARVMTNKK
Sequence	RBNS enrichment (R)
UCGGGAAGGAUGGGAAAAACUGCAGUCACCAACAAUGAUUAAUCAGCUGUUGCAGGCAGUGUCUUAAGGAGACUGGUAGGAGGAGGCAUGGAAACCCAAAGGCCGUGUGU	0.799
ACAGUUAUUUUAAAACAGUCCACAAGAGGGGUGUCUAGUUUUCAGAGACACUUCAGAAACUUUGCUCAGAAAACAGAUGCUACAGUUUGUGCAGGCAUGCGGUAGGAAAG	1.84
CACAACGUCUCUACUGUGCCUAUUACCAAGCGAGUGUUUGUAACCACAUACUUUUGGAAUCCACUGCAAAAUUUUCUACUGGCCAAGUUCAAGUGAGCAAGCCAUGCCCC	0.587
CGCGCAUGAAUACUUUAAAUGCCAACCUUUUCAAUCAUUUGAUAAAGUCUUUGUAGUCACUCAGUCACCUUUGGUGUCUGUGUGUGUGUGUGUGUGUGUGUGUGUGUGUG	0.364
GUGCAUCCCUGUGUUGAUAGCUCCUGCUUCGGUAGGGAACUCUGAGAUCCUGCUUCCAUCUCCAGCUUCUAGCACUCUCCUAGAGAGGGACAGACUGGAGCCAUGGCCUU	0.301
GCGAGCUGGAAGGAAGCGCUCUCACUUUUUUUCAGGCAAUGUUGCUAGCCCUUCUAGCACACUGAGCUACGAGACUGCCAAUCUCUCUCCUGCGGCACGUUUGGGUUGGC	0.943
CAUGCCACACCUCUCUCCAGGUGCCCUCUGCCUCUUCACCCCACAAGAAGCCUUAUCCUACGUCCUUCUCUCCAUCUAUCGGACCCCAGUUUCCAUCACUAUCUCCAGAG	0.593
AGAGCGGCUGAGGGCUGCCUCACUGCAAAUCCUCCCCACAGCGUCAGUGAAAGUCGUCCUUGUCUCAGAAUGACCAGGGGCCAGCCAGUGUCUGACCAAGGUCAAGGGGC	1.07
GCUGGGCACAGUGGCUCACGCCUGUAAUCCCAGCACUUUGGGAGGCCGAGGCGGGCGGAUCAUGAGGUUAGGAGAGCGAGACCAUCCUGGCUAACACGGUGAAACCCCGU	0.343
UAAGAAACACAUUUAACAUCCGAAGAAGCAAUGCUGUCCUCACUUGAUGUUUCUCUUCUCAACCCAGCAAUGGAGAGCAGGGCUUGCAAAGCCGUACAGAGCCUACGUGC	0.379
GUGGCUCACAACCAUCUGUAAUGGGAUCUGAUGCCCUCUUCUAGUGUGUCUGAAGACAGUGACAGUGUACUCAUAUACAUAAAGAAAUCUUUUUUUAAAAAAGAGAGAAA	0.334
ACGCCACCAUGAAGCCUCAAAAGGUUCAGUAUUAAGGGUUUUAACCGAAAAGAGUUUAACCAGCCCAACUGUGCCAUCCCUGCCUCCACUUCAGAGGGAUGGAGAAAGAA	0.543

Series 3 — technique: RNA Bind-n-Seq; form: RNA; medium: in vitro; tested at: 200 nM; notes: whole 134-nt RNA, ends assumed; with: 150 mM LiCl; baseline: input library; reading: higher = stronger binding; each molecule: 7-deaza-guanosine replaces G
Target: Ras GTPase-activating protein-binding protein 1, full length (G3BP1, Homo sapiens, UniProt Q13283)
Sequence of UniProt Q13283 (whole entry, looked up): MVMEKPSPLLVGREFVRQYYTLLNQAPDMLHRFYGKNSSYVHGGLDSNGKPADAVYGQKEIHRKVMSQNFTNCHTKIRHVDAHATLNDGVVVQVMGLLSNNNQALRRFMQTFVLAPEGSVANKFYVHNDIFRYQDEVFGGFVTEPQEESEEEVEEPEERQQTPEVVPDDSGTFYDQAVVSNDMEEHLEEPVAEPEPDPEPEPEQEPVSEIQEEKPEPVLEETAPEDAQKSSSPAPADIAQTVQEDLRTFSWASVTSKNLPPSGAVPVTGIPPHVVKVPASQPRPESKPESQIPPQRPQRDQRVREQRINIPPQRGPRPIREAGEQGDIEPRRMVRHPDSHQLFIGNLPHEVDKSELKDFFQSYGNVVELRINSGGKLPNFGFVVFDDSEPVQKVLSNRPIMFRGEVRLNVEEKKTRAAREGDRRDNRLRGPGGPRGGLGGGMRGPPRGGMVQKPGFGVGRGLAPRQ
All sequences stand within: GGGAGUUCUACAGUCCGACGAUC … UGGAAUUCUCGGGUGUCAAGG
Sequence	log2 enrichment
CACAGACAACACGCAAACACACAGACACAGAGGGAAGGGGUUGGGAUGGGGACAGGGUGCACAGCAGGGCGGGGUAGGACCCCAGCCCCU	0.357
AUGCACUUGACAUAGUAGCAAAUUGGUUCUGAAUUAUGCAACUGUUUGCUAUUUAGUAAACUAGCAAAUGAUGCAUGUAUUUUGUUUUUC	-2.28
CCUGUGCUACACAUCGUAUGUACCGAAUCAAAUUUUUAAACCCCCCCAAAUUUUUUUAAAAAAGUAUUAUGUUACGCCGUUCGGAUCUGC	1.16
GUCCUGUGCUACACAUCGUAUGUACCGAAUCGGGAGGGUUUUUUUGGGUUUUUUUGGGAAAGUAUUAUGUUACGCCGUUCGGAUCUGCAC	-0.00272
CAAGUCCUGUGCUACACAUCGUAUGUACCGAAUCGGGCCCGGGCCCGGGCCCGGGGAAAGUAUUAUGUUACGCCGUUCGGAUCUGCACUU	-0.568
CUGUGCUACACAUCGUAUGUACCGAAUCGGGGCCCCCCCGGGCCCCCCCGGGGCCCCCCCGGAAAGUAUUAUGUUACGCCGUUCGGAUCU	-0.217
CUGUGCUACACAUCGUAUGUACCGAAUCGGGGAAAAAAAGGGGUUUUUUUGGGGAAAGGGGAAAGUAUUAUGUUACGCCGUUCGGAUCUG	-1.32
CAAGUCCUGUGCUACACAUCGUAUGUACCGAAUCGGGUGGGAAAAAAAGGGUGGGAAAGUAUUAUGUUACGCCGUUCGGAUCUGCACUUC	-0.169
GCAGGAAGUAAAAACAAAUGGAAAUGCUUCGGAUAGUGGCAGGGGUGGGGGUUGCUAAGGAAAGGGUAAAAUGGGAGUGGGUAAAGAGUU	0.346
UGGGAGGUGGAUUUUGUUUAUUUUAUUAGCUCAUUUCCAGGGGUGGGAAUUUUUUUUUAAUAUGUGUCAUGAAUAAAGUUGUUUUUGAAA	-0.768
CUGUGCUACACAUCGUAUGUACCGAAUCGGGAAAAAAAGGGGAAAAAAAGGGAAAAAAAGGGAAAGUAUUAUGUUACGCCGUUCGGAUCU	0.304

Series 4 — target: CCNB3, cyclin fold, Cln2 fusion (human); technique: yeast growth competition, sequencing; medium: yeast; notes: weak parent motif; baseline: not given; reading: higher = stronger binding
Parent: CUX1 docking peptide (human); SRIRRELFIEEIQ; partner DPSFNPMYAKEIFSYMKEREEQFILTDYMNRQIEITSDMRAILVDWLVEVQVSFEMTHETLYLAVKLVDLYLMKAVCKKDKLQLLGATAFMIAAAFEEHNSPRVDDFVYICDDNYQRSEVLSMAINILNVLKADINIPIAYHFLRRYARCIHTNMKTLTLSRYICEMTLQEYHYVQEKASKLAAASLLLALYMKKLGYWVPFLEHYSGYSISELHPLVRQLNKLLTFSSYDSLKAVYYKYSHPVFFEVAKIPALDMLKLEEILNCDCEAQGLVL
Variant	normalised enrichment score
Q13A	0.11
I12A	-0.134
R5A L7A	-0.118
R5K F8L	0.273
R2A	0.199
R5K	0.306
I3A	0.243
R4A	-0.0911
S1A	0.243
R5A	-0.193

Some of these lines once more (series 1):
Sequence	fitted relative affinity
GACGGTTTCGACAGTGGGGACGTGCTA	1.83 z-score
GAAGATATCAGTATCGAGACGTGCTAG	-0.21 z-score
TACGATATCAGTTTCGAGACGTGCTAG	3.72 z-score
TTAGGACTGGGACGGGGTTAGTGCTAG	-0.172 z-score
AATGAGGCACTGAGAGCAGAGTGCTAG	-1.04 z-score
TTAGGTATCGGACTGGGTTAGTGCTAG	0.0237 z-score
TTAGGTTTCCTTCTCCTTTTGTGCTAG	2.5 z-score
TTAGACCTGGGGTTTCGATTAGTGCTA	2.09 z-score
